# Published values from different studies.
# Protocols differ between the studies behind these lines. Numbers after ± are the reported error.
SMILES,test,test system,conditions,how to read,endpoint,value
Cc1cc(Nc2ncc(Cl)c(Nc3ccccc3S(=O)(=O)C(C)C)n2)c(OC(C)C)cc1C1CCNCC1,,human,"oral, 750 mg/day",baseline: median of 10 patients,unbound tumour and CSF concentration,> 10 fold
C=CCn1c(=O)c2cnc(Nc3ccc(N4CCN(C)CC4)cc3)nc2n1-c1cccc(C(C)(C)O)n1,,"human glioblastoma patients, tumour","oral, 100, 200, 400 mg, median across doses and times",,unbound tumour concentration,24 ng/g
O=C(O)CNC(=O)/C=C/c1ccccc1,untargeted mass spectrometry,"human normal subjects, plasma ultrafiltrate",,,unbound fraction in plasma,4 ± 1%
CN1CC[C@@H](NC(=O)Nc2ccc(C#N)cc2)C[C@@H]1c1nc2ccccc2[nH]1,,"human, severe hepatic impairment, fasted, plasma","oral, 100 mg single dose, geometric mean, fu × total",,unbound AUC(0-last),962 ng·h/mL
CC1=C(CC(=O)O)c2cc(F)ccc2/C1=C\c1ccc([S+](C)[O-])cc1 (centres unmarked),,"human, plasma",concentration not given,,unbound Cmax,2240 nM
CCN(CC)CCNC(=O)c1c(C)[nH]c(/C=C2\C(=O)Nc3ccc(F)cc32)c1C,,"human, cancer patients on NNRTI, plasma","oral, 50 mg/day",,unbound fraction,0.069 ± 0.021
C/C=C(\C)C(=O)NCC(=O)O,untargeted mass spectrometry,"human normal subjects, plasma ultrafiltrate",,,unbound fraction in plasma,52 ± 19%
C[C@]12CC[C@H](O)CC1=CC[C@@H]1[C@@H]2CC[C@]2(C)C(c3cccnc3)=CC[C@@H]12,,"human, plasma",concentration not given,,unbound Cmax,3.7 nM

# A few entries again:
SMILES,test,test system,conditions,how to read,endpoint,value
CN1CC[C@@H](NC(=O)Nc2ccc(C#N)cc2)C[C@@H]1c1nc2ccccc2[nH]1,,"human, severe hepatic impairment, fasted, plasma","oral, 100 mg single dose, geometric mean, fu × total",,unbound AUC(0-last),962 ng·h/mL
